Measurements gathered from unrelated publications.
Lines come from different studies, so protocols differ. ± gives the spread as reported.
Organism: Escherichia coli

CC(C)[C@@H]1NC(=O)[C@@H]2CCCN2C(=O)[C@@H](C)NC(=O)[C@H](CO)NC(=O)[C@H](C)NC(=O)[C@H](C(C)(C)C)NC(=O)[C@H](CCO)NC(=O)[C@H](Cc2c[nH]c3ccccc23)NC(=O)[C@H](CCO)NC(=O)[C@@H](CCN)NC(=O)[C@H](CCC(N)=O)NC(=O)[C@H](CCN)NC(=O)[C@H](Cc2ccc(O)cc2)NC(=O)[C@H]([C@@H](C)O)NC1=O  MIC (broth microdilution; NDM-1, CAMHB with polysorbate-80; 16 h): > 64 µg/mL
Cc1ccc(C2OC(c3ccc(C)cc3)C(C)C(=NOCc3cn(-c4ccccc4)nn3)C2C)cc1 (stereo not shown)  MIC (microbial growth, broth dilution; MTCC443; 24 h): 12.5 µg/mL
CCCCCCCCCCCC[S+]([O-])CC1OC(OC2C(N)CC(N)C(OC3OC(CN)C(O)CC3N)C2O)C(O)C(N)C1O (mixture of isomers)  MIC (BL21(DE3) AAC(6')/APH(2'')): > 150 µg/mL
CCC(O)CC#Cc1ccc(-n2nnc(/C(C)=N\NC(=N)N)c2C)cc1 (stereo not shown)  MIC (broth microdilution; JW55031 tolC mutant): > 64 µg/mL
Cc1cc(N)c2cc(NC(=O)c3ccc4c(-c5cccc(N)c5)cccc4c3)ccc2n1  MIC (BW25113 wild type): > 200 µM
CC[C@H](C)[C@H](NC(=O)[C@@H](Cc1ccccc1)NC)C(=O)N[C@@H](CO)C(=O)N[C@H](CCC(N)=O)C(=O)N[C@@H](C(=O)N[C@H](C(=O)OC[C@H](N)C(=O)N[C@H]1C(=O)N[C@@H](C)C(=O)N[C@@H](C2CCCCC2)C(=O)N[C@@H]([C@@H](C)CC)C(=O)O[C@H]1C)[C@@H](C)CC)[C@@H](C)CC  MIC (broth microdilution; ATCC 10798, Mueller-Hinton broth; 16 h, 37 °C): > 8 µg/mL
CCCCCCCCCC(=O)N[C@@H](Cc1ccccc1)C(=O)N[C@@H](Cc1ccccc1)C(=O)N[C@@H](Cc1ccccc1)C(=O)N[C@@H](Cc1ccccc1)C(=O)N[C@@H](CCCCN)C(=O)N[C@@H](CCCCN)C(=O)N[C@@H](CCCCN)C(=O)N[C@@H](CCCCN)C(=O)N[C@@H](CCCCN)C(N)=O  MIC (broth microdilution; K12; 16-24 h, 37 °C, prepared at pH 7): > 32 µg/mL
CC(C)[C@H](NC(=O)[C@H](CCCNC(=N)N)NC(=O)[C@H](CCCNC(=N)N)NC(=O)[C@@H](NC(=O)[C@H](C)NC(=O)[C@H](CC(N)=O)NC(=O)[C@H](CCCNC(=N)N)NC(=O)[C@@H](NC(=O)[C@H](CCCNC(=N)N)NC(=O)[C@H](CCCNC(=N)N)NC(=O)[C@@H](NC(=O)[C@@H](NC(=O)[C@H](CCCNC(=N)N)NC(=O)[C@H](CCCNC(=N)N)NC(=O)[C@H](Cc1c[nH]c2ccccc12)NC(=O)[C@H](Cc1c[nH]c2ccccc12)NC(=O)CN)[C@@H](C)O)C(C)C)C(C)C)C(C)C)C(=O)O  MIC (ATCC 25922; 18 h, 37 °C): 16 µg/mL
CCCCCCCCCCCCCCCC(=O)N[C@@H](CCCCN)C(=O)N[C@@H](CCCCN)C(=O)N[C@@H](CCCCN)C(=O)N[C@@H](CCCCN)C(=O)N[C@@H](Cc1c[nH]cn1)C(N)=O  MIC (broth microdilution; K12, water pH 7; 18 h, 37 °C): 16 µg/mL
CC(C)[C@H](NC(=O)[C@@H](NC(=O)[C@H](CCCCN)NC(=O)CNC(=O)[C@@H](NC(=O)[C@@H](NC(=O)[C@H](CO)NC(=O)[C@@H](NC(=O)[C@@H](NC(=O)[C@@H]1CCCN1C(=O)[C@@H](NC(=O)[C@@H](NC(=O)CN)C(C)C)C(C)C)C(C)C)C(C)C)C(C)C)C(C)C)C(C)C)C(N)=O  MIC (broth microdilution; K12): > 100 µM
CC[C@H](C)[C@H](NC(=O)[C@H](CCC(=O)O)NC(=O)[C@H](CO)NC(=O)[C@H](CCCNC(=N)N)NC(=O)[C@@H](N)CO)C(=O)N[C@H](C(=O)N[C@@H](Cc1c[nH]cn1)C(=O)N[C@@H](CCC(N)=O)C(=O)N[C@@H](CCCNC(=N)N)C(=O)N[C@@H](CC(C)C)C(=O)N[C@@H](Cc1ccccc1)C(N)=O)C(C)C  MIC (broth microdilution; Mueller Hinton broth): > 400 µg/mL
Cc1cc(N)c2cc(NC(=O)c3ccc4cc(C(=O)N5CCN(C)CC5)ccc4c3)ccc2n1  MIC (hyperporinated wild type): > 200 µM
CC(C)C[C@H](NC(=O)[C@H](Cc1ccc(O)cc1)NC(=O)[C@@H]1CCCN1C(=O)[C@H](CCCNC(=N)N)NC(=O)[C@@H]1CCCN1C(=O)[C@H](CCCCN)NC(=O)[C@H](CC(=O)O)NC(=O)[C@@H]1CCCN1C(=O)[C@H](CCCNC(=N)N)NC(=O)C1(N)CCCCC1)C(=O)N1CCC[C@H]1C(=O)N[C@@H](CCCNC(=N)N)C(=O)N1CCC[C@H]1C(=O)N[C@@H](CCCNC(=N)N)C(=O)N1CCC[C@H]1C(=O)N1CCC[C@H]1C(=O)N[C@@H](CCCNC(=N)N)C(=O)N1CCC[C@H]1C(=O)N[C@H](C(=O)N[C@@H](CCCNC(=N)N)C(=O)N[C@@H](CSCc1cccc(CSC[C@H](NC(=O)[C@H](CCCNC(=N)N)NC(=O)[C@@H](NC(=O)[C@@H]2CCCN2C(=O)[C@H](CCCNC(=N)N)NC(=O)[C@@H]2CCCN2C(=O)[C@@H]2CCCN2C(=O)[C@H](CCCNC(=N)N)NC(=O)[C@@H]2CCCN2C(=O)[C@H](CCCNC(=N)N)NC(=O)[C@@H]2CCCN2C(=O)[C@H](CC(C)C)NC(=O)[C@H](Cc2ccc(O)cc2)NC(=O)[C@@H]2CCCN2C(=O)[C@H](CCCNC(=N)N)NC(=O)[C@@H]2CCCN2C(=O)[C@H](CCCCN)NC(=O)[C@H](CC(=O)O)NC(=O)[C@@H]2CCCN2C(=O)[C@H](CCCNC(=N)N)NC(=O)C2(N)CCCCC2)C(C)C)C(=O)NN)c1)C(=O)NN)C(C)C  MIC (bacterial growth; ATCC 25922, 100% Mueller-Hinton broth; 90 min, 37 °C, strain ATCC 25922): 8.1 ± 0.6 µg/mL
c1ccc(CCNC2CCCc3c2[nH]c2ccc(C4CCCCC4)cc32)cc1 (stereo not shown)  MIC (broth microdilution; MB5746 hyperpermeable, efflux-deficient, cation-adjusted Mueller-Hinton broth): 2 µg/mL
CC[C@H](C)[C@H](NC(=O)[C@H](CCCCN)NC(=O)[C@H](CC(N)=O)NC(=O)[C@H](CC(C)C)NC(=O)[C@H](Cc1ccccc1)NC(=O)[C@H](CCCCN)NC(=O)[C@H](CCCCNC(=N)N)NC(=O)[C@H](CC(C)C)NC(=O)[C@H](CC(C)C)NC(=O)[C@H](CCCCN)NC(=O)[C@H](CCCCNC(=N)N)NC(=O)[C@H](CC(C)C)NC(=O)CNC(C)=O)C(=O)N[C@@H](CCCCN)C(=O)N[C@@H](CCCCNC(=N)N)C(N)=O  MIC (broth microdilution; ATCC 25922): 3.12 µM
CCCCCCSCC1OC(OC2C(N)CC(N)C(OC3OC(CN)C(O)CC3N)C2O)C(O)C(N)C1O (stereo not shown)  MIC (TolC, strain R): 18.8 µg/mL
CC[C@H](C)[C@H](NC(=O)[C@@H](CCCNC(=N)N)NC(=O)[C@H](CCCNC(=N)N)NC(=O)[C@H](CCCN)NC(=O)[C@H](Cc1c[nH]c2ccccc12)NC(=O)[C@H](CCCNC(=N)N)NC(=O)[C@@H]1CCCN1C(=O)[C@H](CCCNC(=N)N)NC(=O)[C@@H]1CCCN1C(=O)[C@H](CC(C)C)NC(=O)[C@H](Cc1ccc(O)cc1)NC(=O)[C@@H]1CCCN1C(=O)[C@@H]1CCCN1C(=O)[C@H](CCCCN)NC(=O)[C@H](CC(=O)O)NC(=O)[C@@H](N)C(C)C)C(=O)N[C@@H](Cc1ccc(O)cc1)C(=O)N[C@@H](CC(N)=O)C(=O)N[C@H](CCCNC(=N)N)C(N)=O  MIC (broth microdilution; BW25113; 18 h): 8 µg/mL
CCCCCCCCCCCCCCCCCCCCCCSCC1OC(OC2C(N)CC(N)C(OC3OC(CN)C(O)CC3N)C2O)C(O)C(N)C1O (stereo not shown)  MIC (BL21(DE3) Eis-expressing): > 150 µg/mL
CC(C)C[C@@H]1NC(=O)[C@H](C)NC(=O)[C@H](NC(=O)[C@H](CO)NC(=O)[C@@H](CCCCN)NC(=O)[C@@H](CC(C)C)NC(=O)[C@@H](N)Cc2ccccc2)[C@H](C(N)=O)OC(=O)[C@H](C)NC1=O  MIC (ATCC 10798; TFA salt): > 32 µg/mL
COc1ccc2nc(C)cc(OCC(=O)Nc3ccccc3OC)c2c1  MIC (broth microdilution; 3): > 64 µM
NCCCC[C@H](NC(=O)[C@H](CCCCN)NC(=O)[C@H](Cc1ccccc1)NC(=O)[C@@H]1CCCN1C(=O)[C@H](Cc1c[nH]c2ccccc12)NC(=O)[C@H](Cc1c[nH]c2ccccc12)NC(=O)[C@H](Cc1c[nH]c2ccccc12)NC(=O)[C@@H]1CCCN1C(=O)[C@H](Cc1ccccc1)NC(=O)[C@H](CCCCN)NC(=O)[C@@H](N)CCCCN)C(N)=O  MIC (ATCC 8937, RPMI medium; 24 h, 37 °C): 15 µM
CC[C@H](C)[C@H](NC(=O)[C@H](C)NC(=O)[C@@H](NC(=O)[C@H](CC(=O)O)NC(=O)[C@H](CCCCN)NC(=O)[C@H](CO)NC(=O)[C@@H](NC(=O)[C@H](CC(N)=O)NC(=O)[C@H](C)NC(=O)[C@@H](NC(=O)[C@H](CCC(=O)O)NC(=O)[C@H](CCCCN)NC(=O)[C@@H](NC(=O)[C@@H](NC(=O)[C@H](Cc1c[nH]cn1)NC(=O)[C@H](CCCCN)NC(=O)[C@@H](NC(=O)[C@H](CCCCN)NC(=O)[C@H](CCCCN)NC(=O)[C@@H](NC(=O)[C@H](CC(C)C)NC(=O)[C@H](CCCCN)NC(=O)[C@H](CC(N)=O)NC(=O)[C@H](Cc1ccccc1)NC(=O)[C@H](CCCNC(=N)N)NC(=O)[C@H](CCCCN)NC(=O)[C@H](CCCNC(=N)N)NC(=O)[C@H](Cc1ccccc1)NC(=O)CN)C(C)C)C(C)C)[C@@H](C)O)[C@@H](C)CC)[C@@H](C)O)C(C)C)C(C)C)C(=O)N[C@H](C(=O)N[C@@H](C)C(=O)NCC(=O)N[C@@H](CO)C(=O)NCC(=O)N[C@H](C(=O)N[C@@H](C)C(=O)N[C@H](C(=O)NCC(=O)N[C@@H](C)C(=O)N[C@@H](C)C(=O)N[C@@H](CCSC)C(N)=O)C(C)C)C(C)C)C(C)C  MIC (isolate RKI 6 A-6, CAMHB): 4 µg/mL
C[C@@](O)(C(F)F)[C@H](NC(=O)c1ccc(C#CC#CC2CC2)cc1)C(=O)NO  MIC (broth microdilution; W3110, CAMHB): 0.014 µg/mL
CC[C@H](C)[C@H](NC(=O)[C@H](CO)NC(=O)[C@H](CO)NC(=O)[C@H](Cc1ccccc1)NC(=O)CN)C(=O)N[C@@H](Cc1ccccc1)C(=O)N[C@@H](CCCNC(=N)N)C(N)=O  MIC (ATCC 8739; added: 8 mM ZnCl2): > 128 µM
CC[C@H](C)[C@H](N)C1=N[C@H](C(=O)N[C@@H](CC(C)C)C(=O)N[C@H](CCC(=O)O)C(=O)N[C@H](C(=O)N[C@H]2CCCCNC(=O)[C@H](CC(N)=O)NC(=O)[C@@H](CC(=O)O)NC(=O)[C@H](Cc3c[nH]cn3)NC(=O)[C@@H](Cc3ccccc3)NC(=O)[C@H](Cc3ccccc3)NC(=O)[C@@H](CCCN)NC2=O)[C@@H](C)CC)CS1  MIC (broth microdilution; ATCC 25922, LB medium; 18 h, 37 °C, added: ZnSO4 0.3 mM): > 64 µg/mL

A few entries again:
CC[C@H](C)[C@H](NC(=O)[C@H](CO)NC(=O)[C@H](CO)NC(=O)[C@H](Cc1ccccc1)NC(=O)CN)C(=O)N[C@@H](Cc1ccccc1)C(=O)N[C@@H](CCCNC(=N)N)C(N)=O  MIC (ATCC 8739; added: 8 mM ZnCl2): > 128 µM
CC[C@H](C)[C@H](N)C1=N[C@H](C(=O)N[C@@H](CC(C)C)C(=O)N[C@H](CCC(=O)O)C(=O)N[C@H](C(=O)N[C@H]2CCCCNC(=O)[C@H](CC(N)=O)NC(=O)[C@@H](CC(=O)O)NC(=O)[C@H](Cc3c[nH]cn3)NC(=O)[C@@H](Cc3ccccc3)NC(=O)[C@H](Cc3ccccc3)NC(=O)[C@@H](CCCN)NC2=O)[C@@H](C)CC)CS1  MIC (broth microdilution; ATCC 25922, LB medium; 18 h, 37 °C, added: ZnSO4 0.3 mM): > 64 µg/mL
